Measurements gathered from unrelated publications.
Several values in a cell are separate wells, animals, samples, runs or records. ± marks the error that the study gave. Values after ≈ are worked out from the molar mass of the structure shown.

SMILES = c1ccc(-c2n[nH]cc2-c2ccnc3ccccc23)nc1; tested on = IRE1 (Candida albicans); assay = kinase binding, MIB/MS competition; test system = Candida albicans lysate; setting = 1 µM; scale = baseline: DMSO; measurement = log2 fold change; result = 0
SMILES = COC1OC(C)C(OS(=O)(=O)O)C(OC2OC(C)C(OS(=O)(=O)O)C(OC3OC(C)C(OS(=O)(=O)O)C(OC4OC(C)C(OS(=O)(=O)O)C(OC5OC(C)C(OS(=O)(=O)O)C(OC6OC(C)C(OS(=O)(=O)O)C(OS(=O)(=O)O)C6O)C5O)C4O)C3O)C2O)C1O (stereo not shown); test system = human plasma; setting = 128 µg/mL; measurement = thrombin time; result = 10.4 ± 0.5 s
SMILES = Cc1cccc2c1N(C(=O)n1ccnn1)CC2; tested on = Arabidopsis thaliana; test system = kai2 mutant; setting = 1 µM, 72 h; measurement = germination rate; result = 68.9%
SMILES = COC1OC(C)C(OS(=O)(=O)O)C(OC2OC(C)C(OS(=O)(=O)O)C(OC3OC(C)C(OS(=O)(=O)O)C(OC4OC(C)C(OS(=O)(=O)O)C(OC5OC(C)C(OS(=O)(=O)O)C(OC6OC(C)C(OS(=O)(=O)O)C(OC7OC(C)C(OS(=O)(=O)O)C(OC8OC(C)C(OS(=O)(=O)O)C(OC9OC(C)C(OS(=O)(=O)O)C(OS(=O)(=O)O)C9O)C8O)C7O)C6O)C5O)C4O)C3O)C2O)C1O (stereo not shown); test system = human plasma; setting = 128 µg/mL; measurement = thrombin time; result = 9.2 s
SMILES = C=CC(=O)N1[C@@H](c2ccc3c(c2)OCO3)c2[nH]c3ccccc3c2C[C@H]1C(=O)N1CCN(C)CC1; tested on = CCNE1 WT-3xFLAG:CDK2 complex; assay = co-IP TMT proteomics, refers to: MNAT1; test system = HEK-293T; setting = 20 µM, 6 h; scale = baseline: DMSO; measurement = log2 fold change; result = 0.0426
SMILES = C=CC(=O)Nc1cccc(Cn2ncc3cnc(Nc4cnn(CCOC)c4)nc32)c1; tested on = SGK3 human; assay = binding, KINOMEscan; setting = 100 nM; scale = lower = stronger binding; measurement = percent of control; result = 96%
SMILES = COC1CN([C@H]2CC[C@H]([C@@]3(C)Oc4c(Cl)cc(C(=O)NCc5c(SC)cc(C)[nH]c5=O)c(C)c4O3)CC2)C1; assay = RNA-seq, refers to: MARCHF3 mouse homolog; test system = mouse, HT-1376 xenograft, whole blood; setting = dose not given; scale = baseline: vehicle; measurement = log2 fold change; result = 0.994
SMILES = COC1OC(C)C(OS(=O)(=O)O)C(OC2OC(C)C(OS(=O)(=O)O)C(OC3OC(C)C(OS(=O)(=O)O)C(OC4OC(C)C(OS(=O)(=O)O)C(OC5OC(C)C(OS(=O)(=O)O)C(OS(=O)(=O)O)C5OS(=O)(=O)O)C4OS(=O)(=O)O)C3OS(=O)(=O)O)C2OS(=O)(=O)O)C1OS(=O)(=O)O (stereo not shown); test system = human plasma; setting = 128 µg/mL; measurement = thrombin time; result = 10.1 ± 1.5 s
SMILES = COc1cc(O)ccc1CCC(c1ccc(O)cc1)c1cc2c(c(C)c1O)OC(c1ccc(O)cc1)CC2 (mixture of isomers); assay = refers to: 14-HDHA; test system = human whole blood; setting = 30 µM, together with: Escherichia coli; measurement = amount; result = 8030 ± 2830 pg/mL blood
SMILES = C=C(NC(=O)c1csc(-c2nc3c(cc2O)-c2nc(cs2)C(=O)NC(C(C)O)C(=O)NC(=C(C)OC)c2nc(cs2)C(=O)NC2c4nc(cs4)C(=O)NC(COC(=O)c4c5c6c(cccc6n4O)COC(=O)C(OC4CC(C)(O)C(N(C)C)C(C)O4)C2OC5)c2nc-3cs2)n1)C(N)=O (stereo not shown); tested on = Enterococcus faecium; assay = microbial growth; setting = clinical isolate; measurement = MIC50; result = 0.0156 µg/mL (≈ 0.0109 µM)
SMILES = COc1ccccc1-c1ccncc1C(=O)Nc1nnc(OCc2ccc(Cl)cc2)s1; tested on = DLD-1 BRCA2-/-; setting = 0.06 µM, mean of replicates; measurement = colony count; result = 54.5 and 60 and 50
SMILES = Cc1ncsc1-c1ccc(C(C)NC(=O)C2CC(O)CN2C(=O)C(NC(=O)CCCCCCCCCCN2CCCC(Nc3ncc(Cl)c(Nc4ccccc4S(=O)(=O)C(C)C)n3)C2)C(C)(C)C)cc1 (stereo not shown); tested on = 22Rv1; assay = RNA-seq, refers to: ZNF607 mRNA; setting = concentration not given; scale = baseline: DMSO; measurement = log2 fold change; result = -1.59
SMILES = COC1OC(C)C(OC2OC(C)C(OS(=O)(=O)O)C(OS(=O)(=O)O)C2OS(=O)(=O)O)C(OS(=O)(=O)O)C1OS(=O)(=O)O (stereo not shown); test system = human plasma; setting = 128 µg/mL; scale = baseline: control; measurement = thrombin time prolongation; result = 1 fold
SMILES = CC(C)c1ccc(N(C)c2ccc3c(c2)OCC[C@H]3CNc2cnccc2C(=O)O)cc1; tested on = Detroit 562; assay = cell growth, CellTiter-Glo; setting = 7 days; measurement = IC50; result = 16.7 nM
SMILES = CCN(CC)CC(=O)Nc1cccc(-n2cc(-c3ccc4ccc(-c5cn(-c6cccc(NC(=O)CN(CC)CC)c6)nn5)cc4c3)nn2)c1; tested on = RCC4; assay = PCR angiogenesis array, refers to: ANGPT2; setting = 5 x IC50, 6 h, normoxia; scale = baseline: untreated; measurement = fold regulation; result = -1.33
SMILES = COC1OC(C)C(OC2OC(C)C(OS(=O)(=O)O)C(OC3OC(C)C(OC4OC(C)C(OS(=O)(=O)O)C(OS(=O)(=O)O)C4O)C(OS(=O)(=O)O)C3O)C2O)C(OS(=O)(=O)O)C1O (stereo not shown); test system = human plasma; setting = 128 µg/mL; scale = baseline: control; measurement = thrombin time prolongation; result = 0.9 fold
SMILES = COc1cc2c(NC3CCN(C(C)C)CC3)cc(N3CCOCC3)nc2cc1OCCCN1CCCC1; assay = TMT quantitative proteomics, refers to: ENO1; test system = 5xFAD mice, hippocampus; setting = dose not given; measurement = normalised protein abundance; result = 0.0512 and 0.0239 and 0.0477 and -0.00632 and -0.00935 and 0.0285 and 0.0158 and 0.0352
SMILES = Fc1ccc(Nc2nc(NC3CCCCC3)c3ccccc3n2)cc1F; tested on = β2AR/β1AR ECL2 chimera; assay = β-arrestin2 recruitment, antagonist, BRET; setting = together with: isoprenaline 1 µM; measurement = pIC50; result = 5.8
SMILES = Nc1ncc(-c2cc(-c3cnn(CC(F)(F)F)c3)ncc2F)nc1C(=O)NC1CNCC(F)C1 (stereo not shown); tested on = DDR2; assay = KINOMEscan; setting = 1 µM; scale = baseline: DMSO control; measurement = remaining binding; result = 100%
SMILES = CNS(=O)(=O)Nc1nccc(Cc2c(C)c3ccc(Oc4ncccc4F)cc3oc2=O)c1F; tested on = KG-1a; assay = cell viability; setting = 7 days; measurement = IC50; result = 4.77 nM
SMILES = COC1OC(C)C(O)C(OC2OC(C)C(O)C(OC3OC(C)C(O)C(OC4OC(C)C(O)C(OC5OC(C)C(O)C(OC6OC(C)C(O)C(OS(=O)(=O)O)C6OS(=O)(=O)O)C5OS(=O)(=O)O)C4OS(=O)(=O)O)C3OS(=O)(=O)O)C2OS(=O)(=O)O)C1OS(=O)(=O)O (stereo not shown); test system = human plasma; setting = 128 µg/mL; measurement = thrombin time; result = 10.6 ± 0.9 s
SMILES = CN1CCCNC(=O)c2cccc(c2)C(=O)NCCCN(C)CCCNc2cccc3c2C(=O)c2cccc(c2C3=O)NCCC1; tested on = SAS; assay = RNA-Seq, refers to: BCLAF1 mRNA; setting = 1 µM, 6 h; scale = baseline: untreated cells; measurement = log2 fold change; result = 0.61
